# Assay results collected from several papers.
# A part holds a random share of what one study measured.

# Set 1
# Target: Ras GTPase-activating protein-binding protein 1, C-terminal RGG region (G3BP1, Homo sapiens, UniProt Q13283)
# Sequence of UniProt Q13283 (whole entry, looked up): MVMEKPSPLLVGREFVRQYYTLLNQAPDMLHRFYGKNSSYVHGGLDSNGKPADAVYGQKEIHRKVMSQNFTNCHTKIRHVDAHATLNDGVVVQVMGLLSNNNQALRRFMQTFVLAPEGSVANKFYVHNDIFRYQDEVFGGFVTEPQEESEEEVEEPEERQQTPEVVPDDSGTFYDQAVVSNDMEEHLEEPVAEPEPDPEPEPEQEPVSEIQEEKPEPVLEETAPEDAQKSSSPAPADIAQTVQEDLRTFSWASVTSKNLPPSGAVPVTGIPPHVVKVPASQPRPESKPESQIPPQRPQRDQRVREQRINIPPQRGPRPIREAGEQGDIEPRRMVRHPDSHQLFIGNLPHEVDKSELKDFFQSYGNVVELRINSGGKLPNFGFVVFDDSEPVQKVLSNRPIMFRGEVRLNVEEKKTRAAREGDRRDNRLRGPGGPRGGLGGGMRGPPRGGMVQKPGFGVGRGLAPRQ
# Technique: RNA Bind-n-Seq
# Form: RNA
# Matrix: in vitro
# Concentration: 1 µM
# Setting: whole 134-nt RNA, ends assumed
# Together with: 150 mM KCl
# Baseline: input library
# Reading: higher = stronger binding
# All sequences stand within: GGGAGUUCUACAGUCCGACGAUC … UGGAAUUCUCGGGUGUCAAGG
Sequence,log2 enrichment
ACCAUGCAGGUGGGCAUCUUUGGGAAGUGGGGCAAGGGGGGGAUAGGAAAGGGGGUAACACUUUGGGAACAGGUGGUCCCAGGUCGUUUC,-1.3
CACAGAGAACACGCACCCACACAGACACAGAGGGAAGGGGUUGGGAUGGGGACAGGGUGCACAGCAGGGCGGGGUAGGACCCCAGCCCCU,0.221
UCAAGUCCUGUGCUACACAUCGUAUGUACCGAAUCGGUUUGGUUUGGAAAAAGGAAAGUAUUAUGUUACGCCGUUCGGAUCUGCACUUCC,-1.36
AGUCCUGUGCUACACAUCGUAUGUACCGAAUCGGUUUUUGGAAAAAGGUUUUUUUGGAAAGUAUUAUGUUACGCCGUUCGGAUCUGCACU,-2.42
ACCAUAAAGGUGGGCAUCUUUGGGAAGUGGGGCAAGGGGGGGAUAGGGAGGGGGGUAACACUUUGGGAACAGGUGGUCCCAGGUCGUUUC,-0.942
UCAAGUCCUGUGCUACACAUCGUAUGUACCGAAUCGGCCCGGCCCGGGGCCCGGAAAGUAUUAUGUUACGCCGUUCGGAUCUGCACUUCC,-1.4
CUGUGCUACACAUCGUAUGUACCGAAUCGGGGUUUUUGGGGUUUUUGGGGUUUUUUUGGGGAAAGUAUUAUGUUACGCCGUUCGGAUCUG,0.209
UGUGGGUCCUCCUGCACCUGGUGCUGGCCUUCCUGUCCCUGCGCUCUUUGACAGCCUCCUGACCUGUAGGACGAGGGAUUCCUUGUUCUU,-0.352
AAGUCCUGUGCUACACAUCGUAUGUACCGAAUCGGAAAAGGAAAAGGGAAAAGGGGAAAGUAUUAUGUUACGCCGUUCGGAUCUGCACUU,-1.6
UUGUUUGAAACAGCAACGCUUCGGUCAGGGUAUCUUUUACCAGACACUAAAGCAUAUGGAGAUAGAAUAGAAAGAAUGCUUCGCCUCAGU,-1.88
UGGCCCUGGUGGCAUGCUGGGAGGAAGAGGUGGCCUCAUGGAUCGUGGUGGUCCCGGUGGAAUGUUCAGAGGUGGCCGUGGUGGAGACAG,2.39
UCCUGUGCUACACAUCGUAUGUACCGAAUCGGGAAAAAGGGUUUUUUUGGGAAAAAGGGAAAGUAUUAUGUUACGCCGUUCGGAUCUGCA,-0.912
UGGCCCUGGUGGCAUGCGGGGAGGAAGAGGUGGCCUCAUGGAUCGUGGUGGUCACGGUGGAAUGUUCAGAGGUGGCCGUGGUGGAGACAG,2.24
AAGUCCUGUGCUACACAUCGUAUGUACCGAAUCGGUUUUUUUGGUGGAAAAAAAGGAAAGUAUUAUGUUACGCCGUUCGGAUCUGCACUU,-2.01

# Set 2
# Target: RNA binding protein fox-1 homolog 2, RRM domain, GST-SBP tag (RBFOX2, Homo sapiens, UniProt O43251-10, residues 100-194)
# Technique: RNA Bind-n-Seq
# Form: RNA
# Matrix: in vitro
# Concentration: 365 nM
# Setting: natural RNA segment, single round, ends assumed
# Baseline: no-protein control
# Reading: higher = stronger binding
# All sequences stand within: GGGAGUUCUACAGUCCGACGAUC … UGGAAUUCUCGGGUGCCAA
# Target sequence (chain): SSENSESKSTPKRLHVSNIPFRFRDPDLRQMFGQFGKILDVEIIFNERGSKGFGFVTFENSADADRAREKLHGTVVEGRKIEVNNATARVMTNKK
Sequence,RBNS enrichment (R)
ACUACUAUUCAAGCAGAGAUUUUGUCUAAUAGAACAUGCCUUUCUUGCUUUUGCUUCUUUUCUUUUGAGACAUGUACCCUUUCUGAUUGGAUAAUUGAUGUUUAGCCAAG,0.555
CUAUUAUAAUUCAAUAAUUCUUUUGUUUACUGCCCUUUUCUGUUCAAGAAUUUUCUGGAAAUUACUCCCUUUCACAUGGUUGAACUCUUAAGUUGACCAGUUCUCAUAGC,0.268
UUUUGACAUCACCCAUUUCCAACUGGGGAUCUCUGGUGCCAAGCCAGAAAGAACGAGGCAUGUAUACACCUCUUCUUCAUGAUAUAUAAUCUAUAUUUUUUUAGGAAAAC,0.366
CUUCGUCCAGUGUUAAGAACUGAGCCAAGGAGAAGCACGAGCAGCCUUCGCACCUGGAGGGUCAGAACGUGCACACACUGCUAACUAGUUUGCACCGGCAGUGCCUUUUU,0.647
AAAUCCUCUGUUUAGCUUAGUUGCACAAAAGGUAGUAUGUCCAGUGGCUAGAGGUGGGGUGGGAAGAGAGGAGGCCAGGCCAGGCCCUCAGGAAUUCCCUGGUUUCCACU,0.665
GGUCUUGGCUGCAUUCUUUUUUUUCCCUCGUGGGGUUCAAAAGAAUAAACAUUUUCUUACUGAUAAACUAGUUUCCUGCCUUUUUAACAUCCCUGGUGGACACAGCGAGG,0.389
UGGGCUGGGAACUGACAGAGGAGCCUGCUGGGCUAGGAGUGGGGGACACUGGCCUCUUAGUGCCCGGCUGCCGAGCUCUUGGCCUUGUCCCCUGGGGCAUCUCUGUCCCC,0.273
AUUGGGCUGCAGGCAGCUCUGGGACGGCACAGGGCGGGCGCUCUGAUCAGCUCGUGUAAAACACACCGUCUUCUUGGCCUCCUGGCCAGUCUUUCUGCGAAUAGUCCUCU,0.192
UUUGUCAGAACCUUCCAGUCCCUUCUUACUCCCCGGUUAACUGAGGUUUUUACCAAUUUCUAGAGCAGUUCAAACCCUAAGUGCUCAAGCGCUUACACAUCCCCUCUGGU,0.408
AUGGCAAGCUCCCAGAUUCCUUCCAGGAAAGUCAACUGUGUCUUAAGGCUUUGCGGCCUGCGCAGACUAUAUCCUGCUUCAGACUAGAUACAAUUGCCCCUUUUUAUAUA,0.209
AGAAGUGGGGGCAGCCCAGGCGGUUUCACGCCCCACACUUUGUACAGACCGAGAGGCCAGUUGAUCUGCUCUGUUUUAUACUAGUGACAAUAAAGAUUAUUUUUUGAUAC,0.46
GCCCUCUGCCUCAGCCCCACUAGGGGAACAACAGGAGGCCUGCUGGGGCUUAGAGUCCGUGCAGGUGGGGAUAUGGGUAAAUCUAGGAGAACUCACAGAUCUUUAUAUGA,0.484

# Set 3
# Target: Histone acetyltransferase KAT6A, both winged helices, GST fusion (KAT6A, Homo sapiens, UniProt Q92794, residues 1-181)
# Technique: protein binding microarray
# Form: double-stranded DNA, one strand shown
# Matrix: in vitro
# Concentration: not given
# Setting: 8-mer, flanks averaged, mean of 2 arrays, mostly near background
# Baseline: not given
# Reading: higher = stronger binding
# Residues (chain): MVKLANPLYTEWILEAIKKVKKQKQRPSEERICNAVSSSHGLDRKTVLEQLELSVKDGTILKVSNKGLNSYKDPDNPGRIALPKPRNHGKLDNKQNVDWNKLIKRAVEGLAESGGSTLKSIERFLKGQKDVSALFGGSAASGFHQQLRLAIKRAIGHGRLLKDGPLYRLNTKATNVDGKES
Sequence,E-score
CAGACAAA,-0.134
CGGTAAGA,0.163
CCGGGGAG,0.154
CTCGCTGA,0.0618
AAGTTTAG,-0.16
CACAGAAA,-0.0962
CCCTGGTC,-0.0709
ATGAAGTA,0.00532
AGCGCGAC,0.277
TAATAGAA,-0.0796
ATTACCTC,-0.155
TACAGAGA,-0.0635
CCTCCAAG,-0.185
GCAAACGA,-0.0713
CACTAACA,-0.124
CTGTCTAA,-0.132
CATTTGAA,0.038
ATTTGATG,-0.16
CGGTGTGC,0.136
CGGGCGAG,0.151
CAACTTGC,-0.0231
ACCGTACC,0.218
AGGCCTAC,-0.0525
ATGGTCAG,-0.181
GGTTCTGA,0.122

# Set 4
# Target: Phosphate system positive regulatory protein PHO4, full length, GST-tagged (PHO4, Saccharomyces cerevisiae, UniProt P07270, residues 1-312)
# Technique: competition protein-binding microarray
# Form: double-stranded DNA, one strand shown
# Matrix: in vitro
# Concentration: 2 µM
# Setting: whole 60-bp probe, lowest competitor level
# Together with: Cbf1 competitor, 0.05 µM
# Reading: higher = stronger binding
# All sequences stand within: … GTCTTGATTCGCTTGACGCTGCTG
# Residues (chain): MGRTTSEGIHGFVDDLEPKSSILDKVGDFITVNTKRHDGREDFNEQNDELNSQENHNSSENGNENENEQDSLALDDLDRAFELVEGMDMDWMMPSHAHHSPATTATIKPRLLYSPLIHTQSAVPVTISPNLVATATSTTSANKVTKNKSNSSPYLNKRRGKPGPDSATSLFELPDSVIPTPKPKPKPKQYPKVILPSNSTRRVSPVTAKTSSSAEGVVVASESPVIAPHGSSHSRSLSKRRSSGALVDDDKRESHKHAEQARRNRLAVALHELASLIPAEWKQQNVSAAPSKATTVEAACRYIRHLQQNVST
Sequence,fluorescence intensity
TTGTTTTCTTCTTCACACGTGAGATTTTCCGCCGGC,12000 a.u.
AAATTACTAAGTTTTCACGTGCACTACCCCGTATGA,14400 a.u.
AAAGCGGTAATTTTTCACGTGTCCTCACATATCTAT,14200 a.u.
TGCTGTGTATTAGTTATTAAATCGTCAAAACGATAC,4320 a.u.
TGGGTAAGATTTCACCACGTGAGGAGCATAATATTG,14600 a.u.
GCTATTCGTTTTATAAATGAAGTTCTTTCCACAAGT,4050 a.u.
CGGGGTTAAGTTTGAAACGTGGGTGGCTTGCAGCAG,15000 a.u.
TGCTGGCGCTGCTACGCCGTGACGGCTCATTTCATC,3630 a.u.
TTCTGCCCTTAATCGCACGTGCCAGAAGACCTGTAC,17400 a.u.
TGCGCAACAACTTGCTTAGTGGGTGTATGTCTAGAA,4720 a.u.
CAGCTTCAACCAAATAACGTGGAGGTTCAGGAACAA,8300 a.u.
AAATTACTAAGTTTTCACGTGGTCTACCCCGTATGA,13700 a.u.
CTTCTGTAAATTTCACACGTGTTTTGACGCGCCCCG,18400 a.u.
ACAATTTCAACCATCCTCGTGTCCTTGTTGTTATCT,11000 a.u.
TATGTGTCCAAGAGACACATGAGCCCAAAAAGGGTA,5090 a.u.
CTGGGGATCAGTTCTCACATGCATCATCCTTTAATA,7470 a.u.
TGTCGCTCTCCCAGCCACGCTCGAAGGACTTGCTGA,4720 a.u.
ATTACCCGTCTCCGTCACGTGAAGTAAAAATTTCCA,12300 a.u.
AAAGCGGTAATTTGTCACCAAACTTCACATATCTAT,3300 a.u.
TTGAAATGGCCAATCACCGTGCCAGGCTTGCAAGTC,5810 a.u.
GGGATTCCTCTCTGGCGTGTGATGTCTGTATCTGTT,5340 a.u.
CTTTCCCGATCTTGGTGAGTGGGTGTAGCACATTTG,4940 a.u.
GTCTTGTCTCATTGAGCAGTGGGTGTCCCCACTTCA,4430 a.u.
CATACCCAACCTTGTGGGGTGGGTGAAGATATTTGT,7170 a.u.
AAAAGCAAATTTTCACACGTGAAGAAGTAAGCTGTT,11800 a.u.
